Results from different studies.
Each numbered part is a random draw from the data of one study; scales do not carry over between parts.
Chain of UniProt P51957 (whole entry, looked up): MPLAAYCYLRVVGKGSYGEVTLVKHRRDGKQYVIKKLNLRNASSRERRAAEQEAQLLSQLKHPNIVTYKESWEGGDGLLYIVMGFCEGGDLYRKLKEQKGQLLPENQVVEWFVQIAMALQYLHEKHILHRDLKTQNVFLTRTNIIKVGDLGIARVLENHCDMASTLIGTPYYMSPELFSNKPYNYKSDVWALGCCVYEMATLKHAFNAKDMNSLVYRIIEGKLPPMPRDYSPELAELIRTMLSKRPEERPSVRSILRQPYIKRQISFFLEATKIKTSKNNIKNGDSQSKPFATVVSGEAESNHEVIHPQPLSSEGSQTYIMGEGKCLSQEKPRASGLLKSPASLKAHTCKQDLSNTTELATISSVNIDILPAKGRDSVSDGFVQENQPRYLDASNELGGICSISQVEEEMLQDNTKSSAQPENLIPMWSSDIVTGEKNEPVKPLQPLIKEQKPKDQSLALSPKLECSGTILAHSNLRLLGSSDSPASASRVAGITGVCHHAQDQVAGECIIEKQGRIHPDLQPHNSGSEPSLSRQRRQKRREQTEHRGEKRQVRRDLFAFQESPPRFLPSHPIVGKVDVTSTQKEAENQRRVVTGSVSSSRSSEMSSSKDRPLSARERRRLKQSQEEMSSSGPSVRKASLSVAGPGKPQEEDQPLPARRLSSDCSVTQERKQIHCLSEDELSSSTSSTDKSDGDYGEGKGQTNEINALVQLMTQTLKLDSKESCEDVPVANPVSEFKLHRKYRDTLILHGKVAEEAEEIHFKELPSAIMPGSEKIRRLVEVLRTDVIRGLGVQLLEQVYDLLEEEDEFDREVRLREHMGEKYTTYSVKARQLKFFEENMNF
Chain of UniProt P48729 (whole entry, looked up): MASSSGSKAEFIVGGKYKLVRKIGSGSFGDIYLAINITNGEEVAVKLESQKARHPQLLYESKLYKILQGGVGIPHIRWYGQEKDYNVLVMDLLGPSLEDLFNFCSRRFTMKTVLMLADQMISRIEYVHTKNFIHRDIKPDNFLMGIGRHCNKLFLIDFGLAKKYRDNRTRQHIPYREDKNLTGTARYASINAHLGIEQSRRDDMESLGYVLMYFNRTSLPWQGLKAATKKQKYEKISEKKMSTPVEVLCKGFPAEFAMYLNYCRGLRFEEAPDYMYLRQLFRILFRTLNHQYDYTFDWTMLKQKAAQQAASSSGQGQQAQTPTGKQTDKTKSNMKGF
Chain of UniProt P53778 (whole entry, looked up): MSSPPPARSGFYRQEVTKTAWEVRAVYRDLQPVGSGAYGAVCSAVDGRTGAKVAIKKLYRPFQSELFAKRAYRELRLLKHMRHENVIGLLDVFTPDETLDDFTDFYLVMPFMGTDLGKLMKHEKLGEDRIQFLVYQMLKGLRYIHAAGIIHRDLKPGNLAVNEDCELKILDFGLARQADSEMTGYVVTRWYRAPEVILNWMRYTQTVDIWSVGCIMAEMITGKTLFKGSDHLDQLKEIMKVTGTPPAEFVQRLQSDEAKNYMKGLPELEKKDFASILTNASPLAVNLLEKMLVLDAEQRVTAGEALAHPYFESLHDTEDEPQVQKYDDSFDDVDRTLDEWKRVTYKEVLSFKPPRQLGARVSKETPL
Chain of UniProt P54756 (whole entry, looked up): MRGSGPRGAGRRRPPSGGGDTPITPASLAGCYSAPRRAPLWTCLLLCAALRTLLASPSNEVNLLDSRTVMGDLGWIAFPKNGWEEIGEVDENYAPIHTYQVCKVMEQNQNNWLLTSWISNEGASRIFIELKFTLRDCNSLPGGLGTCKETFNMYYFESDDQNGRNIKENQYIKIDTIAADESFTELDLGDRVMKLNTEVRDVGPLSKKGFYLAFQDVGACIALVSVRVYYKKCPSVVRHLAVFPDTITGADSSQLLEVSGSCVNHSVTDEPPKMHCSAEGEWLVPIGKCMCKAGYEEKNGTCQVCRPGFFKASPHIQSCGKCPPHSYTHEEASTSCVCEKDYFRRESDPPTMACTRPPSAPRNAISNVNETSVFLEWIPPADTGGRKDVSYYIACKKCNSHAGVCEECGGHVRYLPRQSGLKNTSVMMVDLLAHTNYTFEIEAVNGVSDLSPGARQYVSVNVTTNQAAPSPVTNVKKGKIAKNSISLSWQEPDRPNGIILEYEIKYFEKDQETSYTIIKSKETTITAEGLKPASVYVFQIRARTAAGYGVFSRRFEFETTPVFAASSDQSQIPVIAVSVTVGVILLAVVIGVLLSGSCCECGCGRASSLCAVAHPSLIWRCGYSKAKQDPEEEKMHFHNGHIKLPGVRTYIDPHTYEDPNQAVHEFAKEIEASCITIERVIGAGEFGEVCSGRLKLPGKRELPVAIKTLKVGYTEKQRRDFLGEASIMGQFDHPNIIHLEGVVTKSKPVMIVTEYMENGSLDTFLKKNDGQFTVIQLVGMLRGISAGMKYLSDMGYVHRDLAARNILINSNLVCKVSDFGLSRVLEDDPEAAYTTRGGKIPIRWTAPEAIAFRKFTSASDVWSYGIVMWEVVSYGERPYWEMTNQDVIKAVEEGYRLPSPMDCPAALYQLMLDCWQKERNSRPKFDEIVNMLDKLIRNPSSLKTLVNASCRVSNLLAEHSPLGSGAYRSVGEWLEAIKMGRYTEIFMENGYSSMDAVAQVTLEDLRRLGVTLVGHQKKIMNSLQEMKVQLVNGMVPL
Chain of UniProt Q12851 (whole entry, looked up): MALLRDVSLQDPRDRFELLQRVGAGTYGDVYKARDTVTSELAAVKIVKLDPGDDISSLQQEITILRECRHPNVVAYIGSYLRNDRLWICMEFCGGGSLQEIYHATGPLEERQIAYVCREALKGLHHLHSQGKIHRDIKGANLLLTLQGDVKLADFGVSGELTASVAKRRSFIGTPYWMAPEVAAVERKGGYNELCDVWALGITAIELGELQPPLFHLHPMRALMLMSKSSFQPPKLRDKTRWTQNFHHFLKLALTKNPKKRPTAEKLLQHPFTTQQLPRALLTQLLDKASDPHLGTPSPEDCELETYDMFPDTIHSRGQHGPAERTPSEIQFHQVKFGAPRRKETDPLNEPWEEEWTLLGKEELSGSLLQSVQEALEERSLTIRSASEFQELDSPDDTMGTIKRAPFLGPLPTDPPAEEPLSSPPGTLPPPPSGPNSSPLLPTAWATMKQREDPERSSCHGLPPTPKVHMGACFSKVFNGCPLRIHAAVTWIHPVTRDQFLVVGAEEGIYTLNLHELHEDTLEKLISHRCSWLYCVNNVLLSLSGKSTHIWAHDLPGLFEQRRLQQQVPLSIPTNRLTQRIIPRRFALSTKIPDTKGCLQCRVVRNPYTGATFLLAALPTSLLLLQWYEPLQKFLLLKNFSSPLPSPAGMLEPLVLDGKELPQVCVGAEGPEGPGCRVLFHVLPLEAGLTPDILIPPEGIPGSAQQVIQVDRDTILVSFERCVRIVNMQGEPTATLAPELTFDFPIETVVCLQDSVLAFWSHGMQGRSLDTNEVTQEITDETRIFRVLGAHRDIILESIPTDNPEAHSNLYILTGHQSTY
Chain of UniProt Q02779 (whole entry, looked up): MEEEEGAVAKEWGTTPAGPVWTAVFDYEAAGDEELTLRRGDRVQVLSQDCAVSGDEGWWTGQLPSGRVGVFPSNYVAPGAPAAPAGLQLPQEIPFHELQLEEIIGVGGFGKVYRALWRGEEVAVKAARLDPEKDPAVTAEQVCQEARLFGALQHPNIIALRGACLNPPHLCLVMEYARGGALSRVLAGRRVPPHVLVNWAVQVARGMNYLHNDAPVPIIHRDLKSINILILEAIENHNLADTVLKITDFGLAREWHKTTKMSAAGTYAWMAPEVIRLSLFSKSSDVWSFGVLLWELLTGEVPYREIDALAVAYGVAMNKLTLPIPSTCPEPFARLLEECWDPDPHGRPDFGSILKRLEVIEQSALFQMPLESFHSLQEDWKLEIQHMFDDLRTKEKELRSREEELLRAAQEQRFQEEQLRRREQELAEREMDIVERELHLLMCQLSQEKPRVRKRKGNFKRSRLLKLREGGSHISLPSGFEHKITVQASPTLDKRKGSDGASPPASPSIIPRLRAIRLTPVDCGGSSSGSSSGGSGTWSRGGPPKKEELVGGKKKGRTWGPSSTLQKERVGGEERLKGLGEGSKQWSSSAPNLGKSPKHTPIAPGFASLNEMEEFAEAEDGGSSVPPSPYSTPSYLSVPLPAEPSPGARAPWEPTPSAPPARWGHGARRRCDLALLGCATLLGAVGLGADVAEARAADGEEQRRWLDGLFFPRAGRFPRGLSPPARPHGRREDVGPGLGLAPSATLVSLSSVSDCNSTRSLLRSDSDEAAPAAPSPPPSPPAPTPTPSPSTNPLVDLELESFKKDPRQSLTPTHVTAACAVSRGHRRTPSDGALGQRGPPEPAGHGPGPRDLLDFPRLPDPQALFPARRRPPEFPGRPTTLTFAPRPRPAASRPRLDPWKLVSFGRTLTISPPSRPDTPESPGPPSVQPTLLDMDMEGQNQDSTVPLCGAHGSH

Study 1
Species: mouse
Matrix: microsomes or S9
Concentration: 2 µM
Time: 0.5 h
`O=C(O)CN1C(=O)S/C(=C\C=C2\SCCN2CCCS(=O)(=O)O)C1=S` gave a remaining compound of 94.2%.
With `Cc1c[nH]c(CN2CCCCC2CCn2cccn2)c(C)c1=O` (centres unmarked) the remaining compound was 71.5%.
`COc1ccc(OC)c(C(c2c(O)cc(C)n(C)c2=O)c2c(O)cc(C)n(C)c2=O)c1` has a remaining compound of 57.8%.
The remaining compound of `CC(C)C(C(=O)NC1CCN(C(=O)NC(C)(C)C)CC1)N(C)C` (centres unmarked) is reported as 49.7%.
For `CN(CC1COc2ccccc2O1)C(=O)C1CCC(=O)NC1` (centres unmarked), the remaining compound was 80.1%.
The remaining compound of `O=C1C=C(O)CC(c2ccc(Cl)c(Cl)c2)C1` (centres unmarked) is reported as 0%.
With `Cc1cccc(NC(=O)C2ON=CC2C(=O)N2CCOCC2)c1` (centres unmarked) the remaining compound was 75.7%.
With `CCCC(C)N(C)S(=O)(=O)c1ccc(NS(=O)(=O)CC)c(F)c1` (centres unmarked) the remaining compound was 8.08%.
`CCCC(=O)Nc1cc(C(=O)NC2CCCCC2)ccc1S(=O)(=O)c1ccc(Cl)cc1` has a remaining compound of 101%.
`CN(Cc1cc2cc(F)ccc2[nH]1)C(=O)CC1C(=O)NCCN1CC(C)(C)C` (centres unmarked) gave a remaining compound of 0.264%.

Study 2
Structure (SMILES): CCCC(=O)Oc1ccc2[nH]c(C(=O)c3cc4ccccc4[nH]3)cc2c1
Read-out: enzyme activity
Action: inhibitor
Concentration: 0.5 µM
Reference: control
Casein kinase I isoform alpha (CSNK1A1, Homo sapiens, UniProt P48729) — remaining activity: 94%.
Serine/threonine-protein kinase Nek4 (NEK4, Homo sapiens, UniProt P51957) — remaining activity: 96.3%.
The remaining activity was 89.7% (Serine/threonine-protein kinase Chk1 (CHEK1, Homo sapiens, UniProt O14757)).
It gave 105% for remaining activity (Cyclin-dependent kinase 9, with cyclin T1 (CDK9, Homo sapiens, UniProt P50750)).
Mitogen-activated protein kinase kinase kinase 10 (MAP3K10, Homo sapiens, UniProt Q02779) — remaining activity: 87.7%.
For cGMP-dependent protein kinase 1 (PRKG1, Homo sapiens, UniProt Q13976): remaining activity read 95.1%.
It gave 98.7% for remaining activity (Tyrosine-protein kinase Lyn (LYN, Homo sapiens, UniProt P07948)).
Mast/stem cell growth factor receptor Kit (KIT, Homo sapiens, UniProt P10721) — remaining activity: 82.4%.
For Serine/threonine-protein kinase PLK2 (PLK2, Homo sapiens, UniProt Q9NYY3): remaining activity read 101%.
The remaining activity was 105% (MAP kinase-interacting serine/threonine-protein kinase 2 (MKNK2, Homo sapiens, UniProt Q9HBH9)).
Mitogen-activated protein kinase 12 (MAPK12, Homo sapiens, UniProt P53778) — remaining activity: 93.7%.
It gave 88.8% for remaining activity (Protein kinase C delta type (PRKCD, Homo sapiens, UniProt Q05655)).
The remaining activity was 101% (RAC-gamma serine/threonine-protein kinase (AKT3, Homo sapiens, UniProt Q9Y243)).
For Ephrin type-A receptor 5 (EPHA5, Homo sapiens, UniProt P54756): remaining activity read 97.7%.
For Dual specificity mitogen-activated protein kinase kinase 6 (MAP2K6, Homo sapiens, UniProt P52564): remaining activity read 97.3%.
It gave 99.2% for remaining activity (Protein kinase C iota type (PRKCI, Homo sapiens, UniProt P41743)).
For Mitogen-activated protein kinase 13 (MAPK13, Homo sapiens, UniProt O15264): remaining activity read 103%.
Tyrosine-protein kinase BTK (BTK, Homo sapiens, UniProt Q06187) — remaining activity: 88.2%.
For Serine/threonine-protein kinase 38 (STK38, Homo sapiens, UniProt Q15208): remaining activity read 96.9%.
The remaining activity was 82.7% (Interleukin-1 receptor-associated kinase 4 (IRAK4, Homo sapiens, UniProt Q9NWZ3)).
The remaining activity was 101% (Leucine-rich repeat serine/threonine-protein kinase 2 (LRRK2, Homo sapiens, UniProt Q5S007)).
For Mitogen-activated protein kinase kinase kinase kinase 2 (MAP4K2, Homo sapiens, UniProt Q12851): remaining activity read 95.3%.
For Casein kinase II subunit alpha (CSNK2A1, Homo sapiens, UniProt P68400): remaining activity read 99.8%.

Study 3
Organism: Plasmodium berghei
Cell line: Huh-7
Strain: liver stage
Concentration: 10 µM
Time: 24 h
Reference: control
`CCn1cc(C(=O)O)c(=O)c2cc(F)c(N3CCN(C)CC3)cc21` gave a parasite load of 87.8%.
The parasite load of `O=C1OCCN1/N=C/c1ccc([N+](=O)[O-])o1` is reported as 54.7%.
With `CCN(CC)CC#CCOC(=O)C(O)(c1ccccc1)C1CCCCC1` (centres unmarked) the parasite load was 90.5%.
With `CC(C)NC[C@@H](O)COc1cccc2ccccc12` the parasite load was 94.8%.
For `CN(C)CCCN1c2ccccc2Sc2ccc(C(F)(F)F)cc21`, the parasite load was 125%.
The parasite load of `CC(C)C[C@H]1C(=O)N2CCC[C@H]2[C@]2(O)O[C@](NC(=O)[C@@H]3C=C4c5cccc6[nH]c(Br)c(c56)C[C@H]4N(C)C3)(C(C)C)C(=O)N12` is reported as 55.8%.
`O=[N+]([O-])O[C@@H]1CO[C@H]2[C@@H]1OC[C@@H]2O` has a parasite load of 106%.
With `CCN(CC)CCOc1ccc(C(=C(Cl)c2ccccc2)c2ccccc2)cc1` the parasite load was 6.68%.
The parasite load of `CC(C(=O)O)c1cccc(C(=O)c2ccccc2)c1` (centres unmarked) is reported as 106%.

Study 4
Target: 5-hydroxytryptamine receptor 7 (HTR7, Homo sapiens, UniProt P34969)
Chain of UniProt P34969 (whole entry, looked up): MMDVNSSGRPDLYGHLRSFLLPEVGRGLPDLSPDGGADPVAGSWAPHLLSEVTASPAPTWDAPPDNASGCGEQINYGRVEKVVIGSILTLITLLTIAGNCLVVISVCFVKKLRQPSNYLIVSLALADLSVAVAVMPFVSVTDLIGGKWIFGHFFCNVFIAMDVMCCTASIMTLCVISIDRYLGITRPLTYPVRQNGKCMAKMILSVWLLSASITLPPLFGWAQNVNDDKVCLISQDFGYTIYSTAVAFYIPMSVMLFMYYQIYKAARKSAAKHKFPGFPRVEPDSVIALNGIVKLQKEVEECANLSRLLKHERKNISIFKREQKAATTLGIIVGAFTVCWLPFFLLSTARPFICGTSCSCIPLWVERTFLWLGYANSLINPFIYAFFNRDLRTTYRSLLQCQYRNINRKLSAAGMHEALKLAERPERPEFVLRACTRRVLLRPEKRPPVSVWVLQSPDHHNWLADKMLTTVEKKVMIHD
Read-out: binding
Method: radioligand binding
Concentration: 10 µM
`CS(=O)(=O)NCC[C@H](NC(=O)c1cncc2c1cnn2-c1ccc(F)cc1)c1ccnc(S(C)(=O)=O)c1` has an inhibition of 4.81%.
`Nc1c(C(=O)NCc2ccc(C(=O)NCCCC3CCCCC3)cc2)cnn1-c1ccccc1` has an inhibition of 13.2%.
The inhibition of `Cc1nc(Cc2cccc(C(F)(F)F)c2)sc1-c1ccc(C(N)=O)nc1` is reported as 16.4%.
The inhibition of `CC1=C(C#N)[C@@H](c2ccc3[nH]nc(C)c3c2)C(C#N)=C(c2ccc(Cl)cc2)N1` is reported as 8.19%.
With `O=C(Nc1cccnn1)N1CCC(=Cc2cccc(Oc3ccc(C(F)(F)F)cn3)c2)CC1` the inhibition was 37.5%.
`Cc1nc(N2CC[C@@H](O)C2)ncc1-c1cc(C(F)(F)F)cc2[nH]ncc12` gave an inhibition of 10.8%.
`CNC(=O)c1ccc(Nc2ncc(C(F)(F)F)c(NCc3nccnc3N(C)S(C)(=O)=O)n2)cc1` has an inhibition of 5.31%.
For `C[C@H](NC(=O)c1cnc2n1[C@](C)(Cc1ccc(C#N)cc1)C(=O)N2c1cc(Cl)c(F)c(Cl)c1)C(=O)NC1(c2ccccn2)CC1`, the inhibition was -4.31%.
With `COc1cc(-c2cn(C3CCc4ccccc4N(CC(F)(F)F)C3=O)nn2)ccc1-n1ccc(C)n1` (centres unmarked) the inhibition was 5.84%.
For `CC1=C(C#N)C(c2ccc3c(c2)c(NC(=O)c2ccccc2C)nn3C)C(C#N)=C(C)N1`, the inhibition was 6.72%.
For `COCCc1ccc(-c2c(C)nc3c(N4CCOCC4)ccnn23)cn1`, the inhibition was 96.1%.

Some of these lines once more (study 1):
With `Cc1c[nH]c(CN2CCCCC2CCn2cccn2)c(C)c1=O` (centres unmarked) the remaining compound was 71.5%.
`COc1ccc(OC)c(C(c2c(O)cc(C)n(C)c2=O)c2c(O)cc(C)n(C)c2=O)c1` has a remaining compound of 57.8%.
The remaining compound of `CC(C)C(C(=O)NC1CCN(C(=O)NC(C)(C)C)CC1)N(C)C` (centres unmarked) is reported as 49.7%.
For `CN(CC1COc2ccccc2O1)C(=O)C1CCC(=O)NC1` (centres unmarked), the remaining compound was 80.1%.
The remaining compound of `O=C1C=C(O)CC(c2ccc(Cl)c(Cl)c2)C1` (centres unmarked) is reported as 0%.
With `Cc1cccc(NC(=O)C2ON=CC2C(=O)N2CCOCC2)c1` (centres unmarked) the remaining compound was 75.7%.
With `CCCC(C)N(C)S(=O)(=O)c1ccc(NS(=O)(=O)CC)c(F)c1` (centres unmarked) the remaining compound was 8.08%.
